Assay results collected from several papers.
Every numbered part comes from another study and shows a few of its results, in no order. Positions count from the first letter of the parent shown.
Chain of UniProt Q94JM3 (whole entry, looked up): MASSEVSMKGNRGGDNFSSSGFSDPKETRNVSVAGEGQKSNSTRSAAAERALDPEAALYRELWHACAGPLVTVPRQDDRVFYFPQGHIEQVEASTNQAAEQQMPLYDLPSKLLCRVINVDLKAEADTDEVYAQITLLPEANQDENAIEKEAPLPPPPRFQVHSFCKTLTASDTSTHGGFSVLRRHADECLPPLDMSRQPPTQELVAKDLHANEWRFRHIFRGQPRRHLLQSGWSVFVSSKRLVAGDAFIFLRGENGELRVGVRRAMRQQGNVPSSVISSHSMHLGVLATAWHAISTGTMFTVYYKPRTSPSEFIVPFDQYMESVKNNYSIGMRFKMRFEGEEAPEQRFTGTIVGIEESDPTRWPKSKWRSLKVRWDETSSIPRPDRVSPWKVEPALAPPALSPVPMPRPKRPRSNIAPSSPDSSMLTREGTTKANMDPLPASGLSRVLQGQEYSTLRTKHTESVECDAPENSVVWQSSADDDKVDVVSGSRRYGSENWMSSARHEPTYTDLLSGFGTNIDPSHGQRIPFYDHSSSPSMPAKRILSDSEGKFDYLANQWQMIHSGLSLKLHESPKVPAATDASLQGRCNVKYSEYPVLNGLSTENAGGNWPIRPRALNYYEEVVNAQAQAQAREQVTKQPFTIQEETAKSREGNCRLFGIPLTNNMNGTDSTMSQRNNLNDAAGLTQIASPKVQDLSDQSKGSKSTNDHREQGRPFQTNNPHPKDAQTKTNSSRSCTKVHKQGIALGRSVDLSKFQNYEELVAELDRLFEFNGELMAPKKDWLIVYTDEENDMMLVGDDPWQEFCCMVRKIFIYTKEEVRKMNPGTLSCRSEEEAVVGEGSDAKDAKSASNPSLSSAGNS
Chain of UniProt Q9C966 (whole entry, looked up): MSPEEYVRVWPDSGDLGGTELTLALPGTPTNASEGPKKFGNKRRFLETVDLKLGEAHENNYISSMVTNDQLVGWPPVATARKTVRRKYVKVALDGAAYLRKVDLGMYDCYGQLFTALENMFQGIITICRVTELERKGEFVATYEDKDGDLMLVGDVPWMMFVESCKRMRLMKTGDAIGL
Chain of UniProt Q38824 (whole entry, looked up): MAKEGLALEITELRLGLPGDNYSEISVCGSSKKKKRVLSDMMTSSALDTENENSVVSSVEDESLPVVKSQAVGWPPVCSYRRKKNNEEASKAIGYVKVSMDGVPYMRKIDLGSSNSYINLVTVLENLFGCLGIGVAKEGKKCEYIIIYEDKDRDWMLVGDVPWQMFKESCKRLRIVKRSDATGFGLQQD
Chain of UniProt P93830 (whole entry, looked up): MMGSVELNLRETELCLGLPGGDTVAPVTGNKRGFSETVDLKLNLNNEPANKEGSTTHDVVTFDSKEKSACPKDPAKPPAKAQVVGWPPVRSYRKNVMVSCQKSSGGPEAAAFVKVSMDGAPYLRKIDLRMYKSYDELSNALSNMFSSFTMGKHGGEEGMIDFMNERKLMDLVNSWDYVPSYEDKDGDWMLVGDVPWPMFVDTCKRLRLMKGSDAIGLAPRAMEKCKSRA
Chain of UniProt Q9SKN5 (whole entry, looked up): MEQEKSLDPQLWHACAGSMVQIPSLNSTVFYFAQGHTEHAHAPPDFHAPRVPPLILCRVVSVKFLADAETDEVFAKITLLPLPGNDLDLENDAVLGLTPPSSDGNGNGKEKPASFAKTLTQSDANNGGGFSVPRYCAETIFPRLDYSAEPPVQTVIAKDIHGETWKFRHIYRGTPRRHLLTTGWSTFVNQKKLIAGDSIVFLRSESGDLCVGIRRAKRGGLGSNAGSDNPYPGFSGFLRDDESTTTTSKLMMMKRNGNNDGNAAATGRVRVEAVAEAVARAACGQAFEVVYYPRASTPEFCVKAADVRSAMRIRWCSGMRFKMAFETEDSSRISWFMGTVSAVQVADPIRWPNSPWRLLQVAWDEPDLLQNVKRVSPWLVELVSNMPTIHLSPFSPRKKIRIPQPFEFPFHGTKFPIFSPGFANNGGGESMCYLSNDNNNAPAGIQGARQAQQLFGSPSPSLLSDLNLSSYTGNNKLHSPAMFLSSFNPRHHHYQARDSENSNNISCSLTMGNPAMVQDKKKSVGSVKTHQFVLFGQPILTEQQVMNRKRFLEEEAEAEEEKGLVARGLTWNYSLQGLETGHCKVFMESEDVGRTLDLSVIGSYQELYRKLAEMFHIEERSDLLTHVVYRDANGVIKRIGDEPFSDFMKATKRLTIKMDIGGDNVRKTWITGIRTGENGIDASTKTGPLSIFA
Chain of UniProt Q9FX25 (whole entry, looked up): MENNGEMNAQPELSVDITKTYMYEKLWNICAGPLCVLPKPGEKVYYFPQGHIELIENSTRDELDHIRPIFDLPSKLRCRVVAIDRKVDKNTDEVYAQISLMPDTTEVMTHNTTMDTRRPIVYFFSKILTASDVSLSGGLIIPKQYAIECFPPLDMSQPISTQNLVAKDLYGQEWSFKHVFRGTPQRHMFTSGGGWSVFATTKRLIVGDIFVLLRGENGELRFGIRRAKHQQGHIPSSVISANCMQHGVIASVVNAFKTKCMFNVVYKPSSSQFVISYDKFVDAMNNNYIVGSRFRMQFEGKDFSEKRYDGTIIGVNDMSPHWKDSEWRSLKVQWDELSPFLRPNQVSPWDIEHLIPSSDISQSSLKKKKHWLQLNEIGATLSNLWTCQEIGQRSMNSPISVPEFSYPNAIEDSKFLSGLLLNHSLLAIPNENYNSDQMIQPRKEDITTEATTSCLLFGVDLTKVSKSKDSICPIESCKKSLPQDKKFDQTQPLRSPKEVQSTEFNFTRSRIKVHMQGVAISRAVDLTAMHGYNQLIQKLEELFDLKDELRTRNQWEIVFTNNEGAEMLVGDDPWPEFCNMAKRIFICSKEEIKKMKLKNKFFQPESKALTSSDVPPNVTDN
Chain of UniProt Q38825 (whole entry, looked up): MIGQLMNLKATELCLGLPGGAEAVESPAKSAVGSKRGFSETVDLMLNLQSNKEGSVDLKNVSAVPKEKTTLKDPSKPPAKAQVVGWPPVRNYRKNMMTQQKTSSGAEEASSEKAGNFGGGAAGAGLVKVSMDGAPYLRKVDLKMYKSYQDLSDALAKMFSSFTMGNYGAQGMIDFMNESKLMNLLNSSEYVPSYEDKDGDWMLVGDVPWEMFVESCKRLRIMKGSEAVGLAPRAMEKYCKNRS
Chain of UniProt Q84WU6 (whole entry, looked up): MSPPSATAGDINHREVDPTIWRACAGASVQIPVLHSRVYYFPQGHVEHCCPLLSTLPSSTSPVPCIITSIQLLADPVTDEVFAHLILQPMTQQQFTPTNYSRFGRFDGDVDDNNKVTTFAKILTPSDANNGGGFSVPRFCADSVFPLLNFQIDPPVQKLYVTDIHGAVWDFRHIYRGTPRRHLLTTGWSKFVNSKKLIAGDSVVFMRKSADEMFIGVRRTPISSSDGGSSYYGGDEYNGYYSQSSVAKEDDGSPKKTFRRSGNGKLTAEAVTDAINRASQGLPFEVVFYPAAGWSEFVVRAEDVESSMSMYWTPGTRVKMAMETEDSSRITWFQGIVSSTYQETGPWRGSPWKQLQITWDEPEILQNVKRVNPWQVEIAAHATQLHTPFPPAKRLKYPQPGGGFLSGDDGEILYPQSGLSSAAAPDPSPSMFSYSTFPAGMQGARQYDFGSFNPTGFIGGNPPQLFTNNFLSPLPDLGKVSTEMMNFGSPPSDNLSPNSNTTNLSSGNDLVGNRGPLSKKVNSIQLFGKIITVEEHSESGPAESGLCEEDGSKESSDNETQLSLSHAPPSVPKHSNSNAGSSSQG
Chain of UniProt Q9C5W9 (whole entry, looked up): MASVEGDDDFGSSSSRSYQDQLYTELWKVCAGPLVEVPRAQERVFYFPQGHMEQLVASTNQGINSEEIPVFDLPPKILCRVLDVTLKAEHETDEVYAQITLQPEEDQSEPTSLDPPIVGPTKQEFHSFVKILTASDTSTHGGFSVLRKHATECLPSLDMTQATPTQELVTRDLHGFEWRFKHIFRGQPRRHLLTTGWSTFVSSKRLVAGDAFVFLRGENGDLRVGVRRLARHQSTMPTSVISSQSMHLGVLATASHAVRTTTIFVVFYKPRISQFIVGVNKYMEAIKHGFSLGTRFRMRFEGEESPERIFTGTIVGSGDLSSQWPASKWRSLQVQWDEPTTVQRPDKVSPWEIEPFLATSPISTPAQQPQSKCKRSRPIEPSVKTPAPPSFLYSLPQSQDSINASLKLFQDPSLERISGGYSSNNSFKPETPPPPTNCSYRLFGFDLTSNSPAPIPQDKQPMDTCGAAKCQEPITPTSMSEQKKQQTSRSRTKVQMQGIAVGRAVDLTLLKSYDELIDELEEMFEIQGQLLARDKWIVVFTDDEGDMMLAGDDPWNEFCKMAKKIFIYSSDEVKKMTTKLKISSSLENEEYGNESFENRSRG

Set 1
Target: CCNB2, cyclin fold, Cln2 fusion (human)
Method: yeast growth competition, sequencing
Medium: yeast
Notes: weak parent motif
Reference: not given
Reading: higher = stronger binding
Starting sequence: CDAN1 docking peptide (human); RGARSQLFPPTEA; partner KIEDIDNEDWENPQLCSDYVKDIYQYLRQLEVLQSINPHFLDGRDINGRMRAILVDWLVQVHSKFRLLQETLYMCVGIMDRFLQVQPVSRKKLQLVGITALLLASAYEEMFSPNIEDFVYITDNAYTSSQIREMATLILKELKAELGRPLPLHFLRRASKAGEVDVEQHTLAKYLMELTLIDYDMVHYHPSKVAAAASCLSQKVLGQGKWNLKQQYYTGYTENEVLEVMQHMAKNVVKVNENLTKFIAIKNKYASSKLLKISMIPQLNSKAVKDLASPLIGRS
Substitution	normalised enrichment score
RGARSQLFPATEA [P10A]	0.221
RGAASQLFPPTEA [R4A]	-0.082
RAARSQLFPPTEA [G2A]	0.154
RGARSQLFPPAEA [T11A]	0.0173
RGARAQLFPPTEA [S5A]	0.488
AGARSQLFPPTEA [R1A]	0.176

Set 2
Target: RNA binding protein fox-1 homolog 2, RRM domain, GST-SBP tag (RBFOX2, Homo sapiens, UniProt O43251-10, residues 100-194)
Method: RNA Bind-n-Seq
Form: RNA
Medium: in vitro
Concentration: 365 nM
Notes: natural RNA segment, single round, ends assumed
Reference: no-protein control
Reading: higher = stronger binding
Residues (chain): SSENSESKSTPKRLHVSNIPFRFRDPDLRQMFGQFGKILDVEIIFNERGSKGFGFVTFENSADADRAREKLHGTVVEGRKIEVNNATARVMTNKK
Oligonucleotide	RBNS enrichment (R)
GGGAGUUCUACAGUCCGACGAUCAAUGACUCCUUGGGUAUUAGAGUUUCAACCAUGAAGUCUCUAACAAUGUAUUUUCUUCACCUCUGCUACUCAAGUAGCAUUUACUGUGUCUUUGGUUUGUGCUAGGCCCCUGGAAUUCUCGGGUGCCAA	0.833
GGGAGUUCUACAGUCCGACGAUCGAGGAGGGUCAUGGCUCCAAAUCCGCUUGCCAGUCCCGCCCUCUCUCAGGUUCAGUGGGACUGCCACUGUUAAGGAAGCCACGUUGCUGAUGGGAGGUCUCACCGGCCACUGGAAUUCUCGGGUGCCAA	0.244
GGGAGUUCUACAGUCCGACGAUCCCUUCCUCACCGCAGAUGUCUGUCUCCGAGAUCUGCAACCGUCUUGCUGACUAGGGCUUGGGCUAGAAGAGAAGAGCUGGAUUACUCGCUGUUUCCUGCACUUAAGCCUUUGGAAUUCUCGGGUGCCAA	0.574
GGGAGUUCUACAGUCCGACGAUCAUAAGAAGCCUGUCAGUAUUGCCAUGAGACUGUUUCAUAUGGUUACUUUUCUGUAUUCCCAAGGAAUGCCUUCCUGUCUUAUUUUAGCCAAAACAAACUGGUUCCAUGCCUGGAAUUCUCGGGUGCCAA	4.46
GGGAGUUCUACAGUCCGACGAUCAAUAUGCCCAAGAUUGCAAAUGCAUCCAGUCAGUAAUACCACUGUCUGUAUGUGGAAGACAUGUUCCCAUGGAUCAUAUGUGAAGAUGUCAAUAAGCUUGCAUUAAGCCAUGGAAUUCUCGGGUGCCAA	0.304
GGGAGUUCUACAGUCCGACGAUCAAAACUCUAGCGCAUCUUCUGGCACGGUUUUAACAACGUGUUUGUGUUGAAUUUCCUUUUUAUGCAUCAAACGAAGGCCAUAUUGUCCAUAAAUGCUCAGUGCUCAGGAUUGGAAUUCUCGGGUGCCAA	1.16
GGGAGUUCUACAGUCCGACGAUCAACUGUUCCACUUGAACCCGGGAGCUUUAAAGCUUUAUUUAUUUAUAGCUUCUUAUUAAAAAUUUAAAAAAAGCGUUGAGGAGGAAUCCUUUGGUUAUUCAUACGGAAUUUGGAAUUCUCGGGUGCCAA	0.515
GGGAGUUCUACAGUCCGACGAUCAAUUUAGUUAGACUAAACAUAAUUCUUUAAGUUCAACCUAAAGGGCUGAGAUCAAUAAAUUUAACACUAGACGAAGUAGACUUCCUGUCUUUUUGAGAAGAGAUGAGGUAUGGAAUUCUCGGGUGCCAA	0.582
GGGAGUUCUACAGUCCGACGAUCUAUAGCAAUUCUGACAAUAGGUUUGUUUGUUUGUUUGUUUGUUUUUACAAACUCAAGAAAAACAGACUCACUUGAAAAAAUGGAUGCCAGUCACCUGGUUCCCACUACUGUGGAAUUCUCGGGUGCCAA	0.349
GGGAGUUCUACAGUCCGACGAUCGGCAGGCACAUCCUGGUACUGGCACAGACUGAAGAGUCUGUGUUUCUGUACCACUUGAGGUAUAUGUUUAGUUUUUUUACGUAUCUUCUAAGAAGCUCAGUUUUGCGGUUUGGAAUUCUCGGGUGCCAA	0.232
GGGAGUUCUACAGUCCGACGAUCGCGGCCAGCAGCAGCUCUGCUCAGUCUUUAUUCCCACACCAAAGGGCGAGCAGGUGUGACAUUGGCUAAGGAAGUGUUUCCAGAGUGUGCGUCUCGGGUGACCCUUGCUGUGGAAUUCUCGGGUGCCAA	0.653
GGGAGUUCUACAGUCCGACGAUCGAUUUUGAAAGUAUCUGAGAUAUACAAAUCUCCCUGUAGGAAAUGUGAAAGAAAAGCACAACAAAACUAGGGUUUUUUGUUCAUUUGCUUGCUUUUAUGAUUUUUUUUGGUGGAAUUCUCGGGUGCCAA	0.69

Set 3
Target: Histone acetyltransferase KAT6A, winged helix 1, GST fusion (KAT6A, Homo sapiens, UniProt Q92794, residues 1-85)
Method: protein binding microarray
Form: double-stranded DNA, one strand shown
Medium: in vitro
Concentration: not given
Notes: 8-mer, flanks averaged, mean of 2 arrays, mostly near background
Reference: not given
Reading: higher = stronger binding
Target sequence (chain): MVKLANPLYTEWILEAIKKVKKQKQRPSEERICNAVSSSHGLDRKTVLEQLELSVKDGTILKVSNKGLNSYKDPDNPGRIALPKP
Oligonucleotide	E-score
CGATGACG	0.19
CATGCCTA	-0.146
GGTTTTAC	0.0174
GGCTGTTA	0.0983
ATGATAGC	0.115
ACTAGAAT	-0.179
AACGAATG	-0.156
CAGTAGCA	-0.0515
GGCCTACA	-0.0806
ATACTGGA	-0.215
ACCAACTG	-0.101
ATTTATCG	0.0831
TAACGATA	-0.131
AAGCAATA	-0.142
AACTGCGA	0.152
ACATTGTG	-0.198
CCGAACAC	-0.0241
AGATGCAG	-0.365
AAATAACT	-0.194
GCCAGTAC	-0.0928
CGCGCGCG	0.485
GCCTTCTA	-0.176
CTCTCCCC	-0.0876
TGTATGAA	-0.043
ATCTTCAG	0.0151

Set 4
Sequence: B1 (IAA5)
Method: two-hybrid
Reading: higher = firmer interaction
B1: IAA5 (Arabidopsis thaliana, UniProt P33078); chain MANESNNLGLEITELRLGLPGDIVVSGESISGKKRASPEVEIDLKCEPAKKSQVVGWPPVCSYRRKNSLERTKSSYVKVSVDGAAFLRKIDLEMYKCYQDLASALQILFGCYINFDDTLKESECVPIYEDKDGDWMLAGDVPWEMFLGSCKRLRIMKRSCNRG
partner	setting	scale	positive tests
ARF2 727-859 (Arabidopsis thaliana, UniProt Q94JM3)		reference: out of 2 tests	0
IAA15 (Arabidopsis thaliana, UniProt Q9C966)		reference: out of 4 tests	3
IAA6 (Arabidopsis thaliana, UniProt Q38824)		reference: out of 4 tests	0
ARF17 (Arabidopsis thaliana, UniProt Q84WU6)	weak activation fusion	reference: out of 4 tests	1
ARF10 575-693 (Arabidopsis thaliana, UniProt Q9SKN5)		reference: out of 4 tests	2
ARF13 (Arabidopsis thaliana, UniProt Q9FX25)		reference: out of 4 tests	0
IAA7 (Arabidopsis thaliana, UniProt Q38825)		reference: out of 4 tests	3
IAA17 (Arabidopsis thaliana, UniProt P93830)		reference: out of 4 tests	4
ARF18 482-602 (Arabidopsis thaliana, UniProt Q9C5W9)		reference: out of 4 tests	0

Set 5
Target: ABI1, truncated, D143A, DHFR fusion (Arabidopsis thaliana)
Method: DHFR PCA, deep sequencing
Medium: yeast
Notes: methotrexate growth selection, single substitutions
Added: (+)-ABA 2500 µM
Reference: wild-type fitted maximum
Reading: higher = stronger binding
Starting sequence: PYL1, truncated, DHFR fusion (Arabidopsis thaliana); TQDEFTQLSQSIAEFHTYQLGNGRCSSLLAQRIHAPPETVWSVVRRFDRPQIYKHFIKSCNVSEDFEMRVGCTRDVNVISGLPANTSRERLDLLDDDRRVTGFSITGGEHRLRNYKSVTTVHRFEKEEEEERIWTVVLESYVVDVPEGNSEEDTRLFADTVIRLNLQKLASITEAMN
Substitution	relative binding score
S27M	88.9%
V78A	85%
I12Y	89%
E174T	93.9%
S87H	31%
D75M	101%
F47N	6.1%
V43D	26%
K126P	103%
V121M	84.9%
E125K	103%
N85M	95.1%
Y141V	-6.33%
F56M	93.6%
D65W	91.5%
S63E	91.8%
V118Y	92.1%
F5W	104%
L29W	67.3%
T1K	99.4%
N61Q	105%
N165E	18.5%
D65P	101%
L166D	4.76%

Other studies, line by line
Molecule	target	test	test system	setting	scale	measurement	result
PhoQ, residues 284 288 289 292 302 303 HSSMNL	PhoP, residues 12 14 15 18 19 SEGLL (Escherichia coli, UniProt P23836)	Sort-seq, refers to: YFP reporter	E. coli	PhoQ-PhoP variant library, added: 10 µM Mg2+	reference: high Mg2+ state, higher = stronger signaling	fold induction	11.2
